Experimental data of several laboratories.

CC(=O)N[C@@H](CCCCN)C(=O)N[C@@H](CCCCN)C(=O)N[C@@H](CCCNC(=N)N)C(=O)N[C@@H](Cc1ccc(O)cc1)C(=O)N[C@@H](CC(=O)O)C(=O)N[C@@H](CCCNC(=N)N)C(=O)N[C@@]1(C)CCCC=CCCC[C@@](C)(C(=O)N[C@@H](Cc2ccccc2)C(=O)N[C@@H](CCC(N)=O)C(=O)N[C@@H](Cc2ccccc2)C(N)=O)NC(=O)[C@H](CC(C)C)NC(=O)[C@H](CC(C)C)NC(=O)[C@H](Cc2ccccc2)NC1=O
helicity (CD spectroscopy; sodium phosphate buffer; 25 to 100 µM, pH 7.4, 25 °C): 5%

CC[C@H](C)[C@H](NC(=O)[C@H](Cc1ccccc1)NC(=O)[C@H](CC(=O)O)NC(=O)[C@H](CCCN)NC(=O)[C@H](Cc1ccccc1)NC(=O)[C@H](Cc1ccccc1)NC(=O)[C@H](CCCCN)NC(=O)[C@H](CCCCN)NC(=O)[C@H](CC(C)C)NC(=O)[C@H](CCCNC(=N)N)NC(=O)[C@H](CCSC)NC(=O)[C@H](C)N)C(=O)N[C@@H](CC(C)C)C(=O)N[C@@H](CCC(N)=O)C(=O)N[C@@H](CCCNC(=N)N)C(=O)N[C@@H](CCCCN)C(=O)N[C@@H](CCCCN)C(=O)O
helicity (circular dichroism; 20% TFE in PBS; 200 µM, pH 7.4, 25 °C): 21.1%

CC(=O)N[C@@H](CC(C)C)C(=O)N[C@H](C(=O)N[C@@H](Cc1ccccc1)C(=O)N[C@@H](CCC(=O)O)C(=O)N[C@@H](CCC(=O)O)C(=O)N[C@@H](Cc1ccc(O)cc1)C(=O)N[C@@H](Cc1c[nH]c2ccccc12)C(=O)N[C@H]1CCCCNC(=O)C[C@@H](C(N)=O)NC(=O)[C@H]([C@@H](C)O)NC(=O)[C@H](CC(C)C)NC(=O)[C@H](CCC(N)=O)NC1=O)[C@@H](C)O
helicity (circular dichroism; phosphate buffer 10 mM; 50 µM, pH 7.4): 60%

CC(=O)N[C@@H](CCCCN)C(=O)N[C@@H](CCCCN)C(=O)N[C@@H](CCCNC(=N)N)C(=O)N[C@@H](Cc1ccc(O)cc1)C(=O)N[C@@H](CO)C(=O)N[C@@H](CCCNC(=N)N)C(=O)N[C@@]1(C)CCCC=CCCC[C@@](C)(C(=O)N[C@@H](Cc2ccccc2)C(N)=O)NC(=O)[C@H](CC(C)C)NC(=O)[C@H](CC(C)C)NC(=O)[C@H](Cc2ccccc2)NC1=O
helicity (circular dichroism; solution): 24%

CC[C@H](C)[C@H](NC(=O)[C@H](Cc1ccccc1)NC(=O)[C@H](CN)NC(=O)[C@H](CCCNC(=N)N)NC(=O)[C@H](Cc1ccccc1)NC(=O)[C@H](Cc1ccccc1)NC(=O)[C@H](CCCCN)NC(=O)[C@H](CO)NC(=O)[C@H](CC(C)C)NC(=O)[C@H](CCCNC(=N)N)NC(=O)[C@H](CCSC)NC(=O)[C@H](C)N)C(=O)N[C@@H](CC(C)C)C(=O)N[C@@H](CN)C(=O)N[C@@H](CCCNC(=N)N)C(=O)N[C@@H](CCCCN)C(=O)N[C@@H](CCCCN)C(=O)O
helicity (circular dichroism; 20% TFE in PBS; 200 µM, pH 7.4, 25 °C): 18.3%

CC[C@H](C)[C@@H]1NC(=O)[C@H](CCCCN)NC(=O)[C@H](CCCCN)NC(=O)[C@H](Cc2ccc(O)cc2)NC(=O)[C@H](CC(C)C)NC(=O)[C@@H]2CCCN2C(=O)[C@H](C)NC(=O)CNC(=O)CNC(=O)[C@H](CO)NC(=O)CNC(=O)CNC(=O)[C@H](CO)NC(=O)[C@H](CCCCN)NC(=O)[C@H](CC(C)C)NC(=O)[C@H](CC(C)C)NC(=O)[C@H](CCCCN)NC(=O)[C@H](CCCCN)NC(=O)[C@H]([C@@H](C)CC)NC(=O)[C@H]([C@@H](C)CC)NC(=O)[C@H](CCCCN)NC(=O)[C@H](CCCCN)NC(=O)[C@H](Cc2ccc(O)cc2)NC(=O)[C@H](CC(C)C)NC(=O)[C@@H]2CCCN2C(=O)[C@H](C)NC(=O)CNC(=O)CNC(=O)[C@H](CO)NC(=O)CNC(=O)CNC(=O)[C@H](CO)NC(=O)[C@H](CCC(=O)O)NC(=O)[C@H](CC(C)C)NC(=O)[C@H](CC(C)C)NC(=O)[C@H](CCCCN)NC(=O)[C@H](CCCCN)NC(=O)[C@H]([C@@H](C)CC)NC1=O
helicity (circular dichroism; aqueous NaF phosphate buffer; 50 µM, pH 7.5): 24%

CC[C@H](C)[C@H](NC(=O)[C@H](Cc1ccccc1)NC(=O)[C@H](CC(=O)O)NC(=O)[C@@H]1CCCCNC(=O)NCCC[C@H](NC(=O)[C@H](CC(C)C)NC(=O)[C@H](CCCNC(=N)N)NC(=O)[C@H](CCSC)NC(=O)[C@H](C)N)C(=O)N[C@@H](CCCCN)C(=O)N[C@@H](Cc2ccccc2)C(=O)N[C@@H](Cc2ccccc2)C(=O)N1)C(=O)N[C@@H](CC(C)C)C(=O)N[C@@H](CCC(N)=O)C(=O)N[C@@H](CCCNC(=N)N)C(=O)N[C@@H](CCCCN)C(=O)N[C@@H](CCCCN)C(=O)O
helicity (circular dichroism; 20% TFE in PBS; 200 µM, pH 7.4, 25 °C): 29%

CC[C@H](C)[C@@H]1NC(=O)[C@H](CCCCN)NC(=O)[C@H](CCCCN)NC(=O)[C@H](Cc2ccc(O)cc2)NC(=O)[C@H](CC(C)C)NC(=O)[C@@H]2CCCN2C(=O)[C@H](C)NC(=O)CNC(=O)CNC(=O)[C@H](CO)NC(=O)CNC(=O)CNC(=O)[C@H](CO)NC(=O)[C@H](CCC(=O)O)NC(=O)[C@H](CC(C)C)NC(=O)[C@H](CC(C)C)NC(=O)[C@H](CCCCN)NC(=O)[C@H](CCCCN)NC(=O)[C@H]([C@@H](C)CC)NC(=O)[C@H]([C@@H](C)CC)NC(=O)[C@H](CCCCN)NC(=O)[C@H](CCCCN)NC(=O)[C@H](Cc2ccc(O)cc2)NC(=O)[C@H](CC(C)C)NC(=O)[C@@H]2CCCN2C(=O)[C@H](C)NC(=O)CNC(=O)CNC(=O)[C@H](CO)NC(=O)CNC(=O)CNC(=O)[C@H](CO)NC(=O)[C@H](CCC(=O)O)NC(=O)[C@H](CC(C)C)NC(=O)[C@H](CC(C)C)NC(=O)[C@H](CCCCN)NC(=O)[C@H](CCCCN)NC(=O)[C@H]([C@@H](C)CC)NC1=O
helicity (circular dichroism; aqueous NaF phosphate buffer; 50 µM, pH 7.5): 35%

CC[C@H](C)[C@H](NC(=O)[C@H](Cc1ccccc1)NC(=O)[C@H](CCN)NC(=O)[C@H](CCCNC(=N)N)NC(=O)[C@H](Cc1ccccc1)NC(=O)[C@H](Cc1ccccc1)NC(=O)[C@H](CCCCN)NC(=O)[C@H](CO)NC(=O)[C@H](CC(C)C)NC(=O)[C@H](CCCNC(=N)N)NC(=O)[C@H](CCSC)NC(=O)[C@H](C)N)C(=O)N[C@@H](CC(C)C)C(=O)N[C@@H](CCN)C(=O)N[C@@H](CCCNC(=N)N)C(=O)N[C@@H](CCCCN)C(=O)N[C@@H](CCCCN)C(=O)O
helicity (circular dichroism; 20% TFE in PBS; 200 µM, pH 7.4, 25 °C): 15.1%

CC[C@H](C)[C@@H]1NC(=O)[C@H](CCCCN)NC(=O)[C@H](CCCCN)NC(=O)[C@H](Cc2ccc(O)cc2)NC(=O)[C@H](CC(C)C)NC(=O)[C@@H]2CCCN2C(=O)[C@H](C)NC(=O)CNC(=O)CNC(=O)[C@H](CO)NC(=O)CNC(=O)CNC(=O)[C@H](CC(N)=O)NC(=O)[C@H](CCC(=O)O)NC(=O)[C@H](CC(C)C)NC(=O)[C@H](CC(C)C)NC(=O)[C@H](CCCCN)NC(=O)[C@H](CCCCN)NC(=O)[C@H]([C@@H](C)CC)NC(=O)[C@H]([C@@H](C)CC)NC(=O)[C@H](CCCCN)NC(=O)[C@H](CCCCN)NC(=O)[C@H](Cc2ccc(O)cc2)NC(=O)[C@H](CC(C)C)NC(=O)[C@@H]2CCCN2C(=O)[C@H](C)NC(=O)CNC(=O)CNC(=O)[C@H](CO)NC(=O)CNC(=O)CNC(=O)[C@H](CC(N)=O)NC(=O)[C@H](CCC(=O)O)NC(=O)[C@H](CC(C)C)NC(=O)[C@H](CC(C)C)NC(=O)[C@H](CCCCN)NC(=O)[C@H](CCCCN)NC(=O)[C@H]([C@@H](C)CC)NC1=O
helicity (circular dichroism; aqueous NaF phosphate buffer; 50 µM, pH 7.5): 17%

CC(=O)N[C@@H](CCCCN)C(=O)N[C@@H](CCCCN)C(=O)N[C@@H](CCCNC(=N)N)C(=O)N[C@@H](Cc1ccc(O)cc1)C(=O)N[C@@H](CO)C(=O)N[C@@H](CCCNC(=N)N)C(=O)N[C@@H](CCC(=O)O)C(=O)N[C@]1(C)CCCC=CCCC[C@@](C)(C(=O)N[C@@H](Cc2ccccc2)C(N)=O)NC(=O)[C@H](CC(C)C)NC(=O)[C@H](CC(C)C)NC1=O
helicity (circular dichroism; solution): 45%

CC[C@H](C)[C@@H]1NC(=O)[C@H](CCCCN)NC(=O)[C@H](CCCCN)NC(=O)[C@H](Cc2ccc(O)cc2)NC(=O)[C@H](CC(C)C)NC(=O)[C@@H]2CCCN2C(=O)[C@H](C)NC(=O)CNC(=O)CNC(=O)[C@H](CO)NC(=O)CNC(=O)CNC(=O)[C@H](CO)NC(=O)[C@H](CCC(=O)O)NC(=O)[C@H](CC(C)C)NC(=O)[C@H](CC(C)C)NC(=O)[C@H](CCCCN)NC(=O)[C@H](CCCCN)NC(=O)[C@H]([C@@H](C)CC)NC(=O)[C@H]([C@@H](C)CC)NC(=O)[C@H](CCCCN)NC(=O)[C@H](CCCCN)NC(=O)[C@H](Cc2ccc(O)cc2)NC(=O)[C@H](CC(C)C)NC(=O)[C@@H]2CCCN2C(=O)[C@H](C)NC(=O)CNC(=O)[C@@H]2CSSC[C@H](NC(=O)[C@H](CC(C)C)NC(=O)[C@H](CCCCN)NC(=O)[C@H](CCCCN)NC(=O)[C@H]([C@@H](C)CC)NC1=O)C(=O)N[C@@H](CCCCN)C(=O)N[C@@H](CC(N)=O)C(=O)NCC(=O)N2
helicity (circular dichroism; aqueous NaF phosphate buffer; 50 µM, pH 7.5): 37%

CC(C)C[C@H]1NC(=O)[C@@H](CC(C)C)NC(=O)[C@@](C)(NC(=O)[C@@H](CCC(=O)O)NC(=O)[C@@H](Cc2ccc(C(F)(F)F)cc2)NC(=O)[C@@H](CC(N)=O)NC(=O)[C@@]2(C)CCCC=CCCC[C@@](C)(N)C(=O)N[C@H](C)C(=O)N[C@H](Cc3c[nH]c4cc(F)ccc34)C(=O)N[C@H](Cc3ccc(O)cc3)C(=O)N2)CCCC=CCCCCCC[C@](C)(C(N)=O)NC1=O
helicity (circular dichroism; solution; 25 °C): 20%

For quick reference, copied from above:
CC[C@H](C)[C@@H]1NC(=O)[C@H](CCCCN)NC(=O)[C@H](CCCCN)NC(=O)[C@H](Cc2ccc(O)cc2)NC(=O)[C@H](CC(C)C)NC(=O)[C@@H]2CCCN2C(=O)[C@H](C)NC(=O)CNC(=O)CNC(=O)[C@H](CO)NC(=O)CNC(=O)CNC(=O)[C@H](CC(N)=O)NC(=O)[C@H](CCC(=O)O)NC(=O)[C@H](CC(C)C)NC(=O)[C@H](CC(C)C)NC(=O)[C@H](CCCCN)NC(=O)[C@H](CCCCN)NC(=O)[C@H]([C@@H](C)CC)NC(=O)[C@H]([C@@H](C)CC)NC(=O)[C@H](CCCCN)NC(=O)[C@H](CCCCN)NC(=O)[C@H](Cc2ccc(O)cc2)NC(=O)[C@H](CC(C)C)NC(=O)[C@@H]2CCCN2C(=O)[C@H](C)NC(=O)CNC(=O)CNC(=O)[C@H](CO)NC(=O)CNC(=O)CNC(=O)[C@H](CC(N)=O)NC(=O)[C@H](CCC(=O)O)NC(=O)[C@H](CC(C)C)NC(=O)[C@H](CC(C)C)NC(=O)[C@H](CCCCN)NC(=O)[C@H](CCCCN)NC(=O)[C@H]([C@@H](C)CC)NC1=O
helicity (circular dichroism; aqueous NaF phosphate buffer; 50 µM, pH 7.5): 17%
